Assay results pooled from the literature.
Compare with care: the assays were run in different laboratories. ± gives the spread as reported.

| Compound | cell line | test | test system | conditions | scale | endpoint | value |
| --- | --- | --- | --- | --- | --- | --- | --- |
| CC(C)=C1CC[C@]2(COC(=O)c3ccccc3)[C@@H](OC(=O)c3ccccc3)/C=C(\C)CC[C@@H]3O[C@@]3(C)C[C@@H](OC(=O)c3cccnc3)[C@@H]12 | HepG2, palmitic acid-induced insulin resistance |  |  | 12.5 µM, 24 h |  | glucose consumption | 7.9 ± 0.52 mM |
| CC(C)(C)CC(C)(C)Nc1c(-c2ccc3c(c2)OCO3)nc2cnccn12 | CT26 | scratch |  | 50 µM, 24 h | relative to: untreated | cell migration | 28.8% |
| COCCNCC(=O)N(CCCCN)CC(=O)N(CC(=O)N(CC(=O)N(CCCCN)CC(=O)N[C@@H](CCCCN)C(=O)N[C@H](CCCCN)C(=O)N[C@@H](CCSC)C(=O)NCCCC[C@H](NC(=O)[C@H](CCSC)NC(=O)[C@@H](CCCCN)NC(=O)[C@H](CCCCN)NC(=O)CN(CCCCN)C(=O)CN(C(=O)CN(Cc1ccc2c(c1)OCO2)C(=O)CN(CCCCN)C(=O)CNCCOC)[C@H](C)c1ccccc1)C(N)=O)[C@H](C)c1ccccc1)Cc1ccc2c(c1)OCO2 | H358 | scratch |  | 48 h |  | minimum migration-inhibiting concentration | 3 µM |
| Clc1ccc(C=[N+]2N=C(Nc3ccccc3)[S][Pd-]2([Cl])[Cl])s1 | HEL human lung fibroblasts | altered cell morphology, microscopy |  | confluent cultures |  | cytotoxic concentration | 100 µM |
| C=C1[C@H](O)CC(=C/C=C2\CCC[C@]3(C)[C@@H]([C@H](C)CCCC)CC[C@@H]23)C[C@H]1O | HL-60 | cell differentiation, NBT reduction |  |  | relative to: compound over 1α,25-dihydroxyvitamin D3 | EC50 ratio | 50 |
| O=Cc1c(O)ccc2ccccc12 | HUVEC | RNA sequencing, item: ADGRF5 |  | 75 µM, 24 h | relative to: DMSO | log2 fold change | -4.3 |
| CC(C)[C@@H](NC(=O)[C@H](N)CCCNC(=N)N)C(=O)N[C@H](CCCCN)C(=O)N[C@@H](C(=O)N[C@H](CCCCN)C(=O)N[C@@H](C(=O)N[C@@H](C(=O)N[C@@H](C(=O)N[C@@H](C(=O)N[C@H](CCCNC(=N)N)C(=O)N[C@H](CCCNC(=N)N)C(=O)N[C@H](CCCNC(=N)N)C(=O)N[C@H](CCCNC(=N)N)C(=O)N[C@H](CCCNC(=N)N)C(=O)N[C@H](CCCNC(=N)N)C(=O)N[C@H](CCCNC(=N)N)C(=O)N[C@H](CCCNC(=N)N)C(=O)N[C@H](CCCNC(=N)N)C(N)=O)C(C)C)C(C)C)C(C)C)C(C)C)C(C)C | human PBMC CD4+ T cells | flow cytometry |  | 1.25 µM, 72 h, unstimulated |  | CD40L expression | increased |
| CC1=CC(OC(=O)c2ccccc2)C2(COC(=O)c3ccccc3)CCC(=C(C)C)C2C(O)CC2(C)OC2CC1 (stereo not shown) | HepG2, palmitic acid-induced insulin resistance |  |  | 5.0 µM, 24 h |  | glucose consumption | 4.59 ± 0.45 mM |
| C=C1C(=O)O[C@H]2[C@H]1CCC(COC(=O)c1cn(C)c3ccccc13)=C1CC[C@@](C)(O)[C@@H]12 | M9-ENL1 | cell growth or viability, flow cytometry |  | 20 µM, 24 h |  | viability | 4% |
| FC(F)(F)c1ccnc(-c2cc(C(F)(F)F)ccn2)c1.FC(F)(F)c1ccnc(-c2cc(C(F)(F)F)ccn2)c1.[Cl-].[Cl-].[Ru+2].c1csc(-c2ccc(-c3ccc(-c4ccc(-c5nc6c7cccnc7c7ncccc7c6[nH]5)s4)s3)s2)c1 | SK-MEL-28 | cell viability |  | normoxia, together with: red light 633 nm | relative to: dark EC50 over light EC50 | mean phototherapeutic index | 53 |
| CC(/C=C/C(=O)NO)=C\[C@@H](C)C(=O)c1ccc(N(C)C)cc1 | H1975 | Western blot |  | 10 µM |  | ERK phosphorylation | decreased |
| COc1cc(CNC(=O)C[C@H](C)CCC=C(C)C)ccc1OCc1cn(-c2ccc(Cl)c(Cl)c2)nn1 | OVCAR-4 ovarian cancer cells | SRB |  | 10 µM, 48 h |  | growth percent | 53.4% |
| CCC(=C(c1ccc(Cl)cc1)c1ccc(OCCN2CCCCCC2)cc1)c1ccccc1 | NCI-60 tumour cell lines |  |  | 10 µM, mean over cell lines |  | growth inhibition | 22.7% |
| COc1ccc([C@@H]2CC(=O)c3c(O)cc(O[C@@H]4O[C@H](CO[C@@H]5O[C@@H](C)[C@H](O)[C@@H](O)[C@H]5O)[C@@H](O)[C@H](O)[C@H]4O)cc3O2)cc1O | MRC5 | trypan blue exclusion |  | 150 µg/mL, 48 h |  | cell count | 11200 ± 514 |
| Cc1nccc2c3ccccc3n(Cc3cccnc3)c12 | PC-12 |  |  | 200 µM, 48 h |  | viability inhibition | 34.3 ± 1.4% |
| CC1(C)C(/C=C/C2=C(Cl)C(=C/C=C3/N(CCCCCC(=O)O)c4ccccc4C3(C)C)/C[N+](C)(C)C2)=[N+](CCCCCC(=O)O)c2ccccc21 | U-87 MG | organelle co-localization, confocal imaging |  | 20 µM, 24 h, lysosome |  | Pearson's correlation coefficient | 0.45 |
| COc1cc(CNC(=O)C[C@H](C)CCC=C(C)C)ccc1OCc1cn(-c2ccc(C#N)cc2)nn1 | OVCAR-3 ovarian cancer cells | SRB |  | 10 µM, 48 h |  | growth percent | 94% |
| CC(=C(c1ccc(O)cc1)c1ccc(Cl)cc1)c1ccc(Cl)cc1 | NCI-60 tumour cell lines |  |  | 10 µM, mean over cell lines |  | growth inhibition | ≥ 100% |
| COc1cc(CNC(=O)C[C@H](C)CCC=C(C)C)ccc1OCc1cn(-c2ccc(Br)cc2)nn1 | Malme-3M melanoma cells | SRB |  | 10 µM, 48 h |  | growth percent | 85.4% |
| CCc1cnc(NC(=O)c2cc(S(=O)(=O)N3CCOCC3)ccc2N(C)CC2CC2)s1 | HCC827 and HCC827-GR | Western blot, item: PTK7, MET, STAT3 signalling |  | 10 µM, 24 h |  | PTK7 and MET N-glycosylation | decreased |
| Cc1cc([C@H](C(=O)N2C[C@H](O)C[C@H]2C(=O)N[C@@H](CC(=O)N2CCC(N3CCC(C#Cc4ccc(C(=O)N[C@H]5C(C)(C)[C@H](Oc6ccc(C#N)c(Cl)c6)C5(C)C)cc4)CC3)CC2)c2ccc(-c3scnc3C)cc2)C(C)C)on1 | MDA-MB-453 and HCC1428 | Western blot, item: cleaved caspase-8, other caspases, PARP |  | 48 h |  | lowest effective concentration | 0.25 µM |
| COc1cc(CNC(=O)C[C@H](C)CCC=C(C)C)ccc1OCc1cn(-c2ccccc2)nn1 | MDA-MB-468 breast cancer cells | SRB |  | 10 µM, 48 h |  | growth percent | 66.2% |

| Compound | cell line | test | test system | conditions | scale | endpoint | value |
| --- | --- | --- | --- | --- | --- | --- | --- |
| CCCC(CCC)C(=O)[O][Pt]([NH2])([NH2])([Cl])([Cl])[O]C(=O)C(Cl)Cl | HEK293 and LoVo | cytotoxicity, MTT |  |  | relative to: IC50 HEK293 over IC50 LoVo | selectivity index | 2.6 |
| COc1cc(CNC(=O)C[C@H](C)CCC=C(C)C)ccc1OCc1cn(-c2cccc([N+](=O)[O-])c2)nn1 | OVCAR-3 ovarian cancer cells | SRB |  | 10 µM, 48 h |  | growth percent | 98.4% |
| CSC(=NN=C(C)c1ccc(S(=O)(=O)N2CCC(C)CC2)cc1)N(C)C | HepG2 | annexin V/PI staining |  | IC50, 72 h |  | apoptotic cells late | 15% |
| O=C(Nc1ccccc1)c1ccc(Nc2nnc(-c3ccc(O)cc3)c3ccccc23)cc1 | wild-type mouse cortical neurons | inhibitor |  | 10 µM, together with: [3H]-anandamide |  | anandamide uptake | inhibited |
| CO[C@@H]1[C@H](N(C)C(=O)c2ccccc2)C[C@H]2O[C@]1(C)n1c3ccccc3c3c4c(c5c6ccccc6n2c5c31)C(=O)NC4 | CLL patient B cells | flow cytometry | human | 1 nM | relative to: untreated | viable CD19+ B cells | 100% |
| Nc1ncnc2c1c(-c1ccc(C(F)(F)F)c(Cl)c1)cn2[C@@H]1O[C@H](CO)[C@@H](O)[C@H]1O | HEK | cytotoxicity |  |  |  | EC50 | > 200000 nM |
| COc1cc([C@@H]2OC[C@@H]3[C@H]2CO[C@H]3c2cc(OC)c(O)c(OC)c2)cc(OC)c1O | HepG2, palmitic acid-induced insulin resistance |  |  | 15 µM, 24 h |  | glucose consumption | 9.76 ± 0.48 mM |
| COc1ccc(CC(C)=C(c2ccc(Cl)cc2)c2ccc(OCCN3CCOCC3)cc2)cc1 | NCI-60 tumour cell lines |  |  | 10 µM, mean over cell lines |  | growth inhibition | 5.43% |
| Cc1cc(-c2ccccc2)c2ccc3c(-c4ccccc4)cc(C)nc3c2n1.[Cl-].[Cl-].[Ru+2].c1ccc(-c2ccccn2)nc1.c1ccc(-c2ccccn2)nc1 | B16-F10 | annexin V/PI |  | 10 µM, 24 h, dark |  | late apoptotic necrotic cells | 21% |
| Cc1ccc(F)cc1NS(=O)(=O)c1cccc(/C=C/C(=O)NO)c1 | MOPC-315 | cell growth |  | 24 h | relative to: belinostat | relative potency | 0.835 |
| COc1cc2c(OC3OCC(OC)C(OC)C3OC(=O)c3ccc(Br)cc3)c3c(c(-c4ccc5c(c4)OCO5)c2cc1OC)C(=O)OC3 (stereo not shown) | CAL-27 and FaDu | MTT |  | 1 µM, 48 and 72 h |  | viability | decreased |
| CC(=O)OC[C@H]1O[C@@H](Sc2sc(C(=O)c3ccc(Br)cc3)c(N)c2-c2nc3ccccc3s2)[C@H](OC(C)=O)[C@@H](OC(C)=O)[C@H]1OC(C)=O | HCC 2998 | SRB |  | 10 µM, 48 h | relative to: untreated | growth | 108% |
| C=CC(=O)Nc1cc(Nc2nccc(-c3c(-c4cccc(F)c4)n(C)c4ccccc34)n2)c(OC)cc1N(C)CCN(C)C | H1975 | Western blot, item: Bcl-2 |  | concentration not given, 24 h |  | protein level | decreased |
| COc1cc(CNC(=O)C[C@H](C)CCC=C(C)C)ccc1OCc1cn(-c2ccccc2Cl)nn1 | OVCAR-8 ovarian cancer cells | SRB |  | 10 µM, 48 h |  | growth percent | 49.8% |
| Nc1ncc(-c2cnn(C3CCNCC3)c2)cc1-c1nc2ccc(O)cc2o1 | HEL 92.1.7 | annexin V/PI flow cytometry |  | 10 µM, 48 h |  | early apoptotic cells | 23.6% |
| CC[C@H](C)[C@H](NC(=O)[C@@H](NC(=O)[C@@H](N)C(C)C)C(C)C)C(=O)N[C@@H](C)C(=O)O | PC-12 | Aβ42-induced neurotoxicity, inhibitor, MTT |  | concentration not given, 6 h, 37 °C, peptide to Aβ42 1:1, together with: Aβ42 2 µM | relative to: untreated cells | viability | 78.9% |
| CC(=O)O[C@H]1CC[C@]2(C)[C@H]3C(=O)C=C4[C@@H]5C[C@@](C)(C(=O)OCc6ccccc6)CC[C@]5(C)CC[C@@]4(C)[C@]3(C)CC[C@H]2C1(C)C | HepG2 | annexin V/7-AAD flow cytometry |  | 4 µM, 24 h |  | apoptotic cells | 11.7% |
| CSC(=S)N/N=C(\C)c1ccc(S(=O)(=O)N2CCC(C)CC2)cc1 | HepG2 | flow cytometry |  | 3.31 µM, 72 h |  | cells in %S | 32.6% |
| COc1cc2c(cc1C)NC(=O)C2=Cc1c(Cl)[nH]c2c1ccc1ccccc12 | leukaemia subpanel of NCI-60 |  |  | 48 h |  | TGI | 1000 nM |
| CCC(=C(c1ccc(Cl)cc1)c1ccc(OCCN2CCCC2)cc1)c1ccc(Cl)cc1 | NCI-60 tumour cell lines |  |  | 10 µM, mean over cell lines |  | growth inhibition | 5.44% |
| COc1cc(CNC(=O)C[C@H](C)CCC=C(C)C)ccc1OCc1cn(-c2cccc(Cl)c2)nn1 | SF-295 CNS cancer cells | SRB |  | 10 µM, 48 h |  | growth percent | 66.8% |
